Measurements from different studies.
A part holds a random share of what one study measured. Values joined by “and” are separate records of one study, mostly repeats; a detail may differ. Positions count from the first letter of the parent shown.

Block 1
Target: CCND3, cyclin fold, Cln2 fusion (human)
Method: yeast growth competition, sequencing
Medium: yeast
Notes: weak parent motif
Reference: not given
Reading: higher = stronger binding
Starting sequence: viral docking peptide; CKVKRKLFGSENI
`CKVKRKLFASENI [G9A]` — result for “normalised enrichment score”: 0.148.
Under “normalised enrichment score”, `CKAKRKLFGSENI [V3A]` is recorded as 0.149.
For `CKVKRKLFGSENA [I13A]`, “normalised enrichment score” read 0.173.
Under “normalised enrichment score”, `CKVKRKLFGAENI [S10A]` is recorded as 0.185.
`CKVKAKLFGSENI [R5A]`: “normalised enrichment score” 0.148.
Under “normalised enrichment score”, `AKVKRKLFGSENI [C1A]` is recorded as 0.087.
For `CKVARKLFGSENI [K4A]`, “normalised enrichment score” read 0.143.
Under “normalised enrichment score”, `CKVKKKLFGSENI [R5K]` is recorded as -0.325.

Block 2
Organism: VSV pseudotyped with VSV-G
Effect on: viral infection
Concentration: concentration not given
Reference: vehicle
For `bleomycin sulfate`, the GFP-positive cells was 145%.
The GFP-positive cells of `maraviroc` is reported as 91.1%.
The GFP-positive cells of `Sucralfate` is reported as 136%.

Block 3
Target: HLA class I histocompatibility antigen, A alpha chain, allele A*80:01 (Homo sapiens, UniProt P04439)
Effect on: peptide-MHC binding
Molecule type: peptide
Concentration: concentration not given
`DGAEGINPY`: binding “inactive”.
For `IMYDHLPGF`, binding read “inactive”.
`ETIGLVRAL` — result for binding: “inactive”.
`MRNTIMASK`: binding “inactive”.
`IIRTENRPL` — result for binding: “inactive”.
For `MHCDFAFWV`, binding read “inactive”.
`MKYVWPPIM`: binding “inactive”.
`VIMWYNYLF` — result for binding: “inactive”.

Single results of other studies
The inhibition of `CCOc1ccc(Nc2c3c(nc4ccccc24)CCC3)cc1` is reported as 55% and 61% and 64% and 62% (Leishmania donovani; parasite growth; DD8 amphotericin B-resistant, promastigotes; 3.33 µM).

A few entries again (block 1):
Under “normalised enrichment score”, `CKAKRKLFGSENI [V3A]` is recorded as 0.149.
